Measured values of several laboratories.
Each line is one published result; not all experiments were run side by side. ± gives the spread as reported.

SMILES	target	assay	system	setting	how to read	endpoint	value
COc1cc(CCC(C)=O)ccc1O	mAb 5-3H1	antibody binding, indirect competitive ELISA		added: coating antigen 1-OVA		IC50	> 4 µg/mL
O=C([O-])CN1CCN(CC(=O)[O-])CCN(C(CCC(=O)NC(Cc2c[nH]c3ccc(O)cc23)C(=O)NCCc2c[nH]c3ccc(O)cc23)C(=O)O)CCN(CC(=O)[O-])CC1.[Gd+3] (stereo not drawn)	myeloperoxidase mouse	MR contrast, MR imaging	wild-type mouse, CFA inflammation	0.3 mmol/kg, 60 min	baseline: first post-contrast scan	activation ratio increase	4 fold
Cc1sc2ncn(CC(=O)N3CCCC3)c(=O)c2c1-c1cccc(Br)c1	NMDA receptor, mouse	single-channel current, outside-out patch	cortical neurons	concentration not given, holding -80 mV, added: Ca2+ 1.25 mM		unitary current amplitude 2	-2.58 ± 0.22 pA
COc1ccc(/C=C/C(=O)c2ccc(OC)cc2)cc1	HDAC class I, II and IV (human)	enzyme activity, inhibitor, fluorometric	K562 cell extract	1 h, 37 °C		IC50	> 1000 µM
COc1ccc(NC(=O)[C@H](CCCCN)NC(=O)c2cc(NC(=O)[C@H](CCCCN)NC(=O)c3cc(NC(=O)[C@H](CCCCN)NC(=O)c4cc(NC(=O)[C@@H](N)CCCCN)ccc4OC)ccc3OC)ccc2OC)cc1C(=O)NCCC(=O)O	antithrombin III-factor Xa	fondaparinux reversal, amidolytic		pH 8.4, added: fondaparinux 0.02 µg/mL		EC50	6 µM
Cn1cc(-c2cnc3ccc(NC(=O)Nc4ccc5sccc5c4)cc3n2)cn1	IKKβ	NF-κB reporter gene, dual luciferase		concentration not given, added: TNF-α		inhibition	inactive
CCCCCCCCCCCCCCCC(=O)N[C@@H](CCCCN)C(=O)N[C@@H](CCCCN)C(=O)N[C@@H](CO)C(=O)N[C@@H](CCCNC(=N)N)C(=O)N[C@@H](C)C(=O)N[C@@H](CC(C)C)C(=O)N[C@@H](Cc1ccccc1)C(N)=O	baboon PAR1	ex vivo platelet aggregation	baboon	intravenous infusion, 6 mg/kg, 1 to 2 h, infusion 45 min, added: SFLLRN		inhibition	100%
C#CCCNC(=O)[C@@H](NC(=O)N[C@H](C(=O)N[C@H]1/C=C/CCNC(=O)/C=C/[C@H](C(C)C)NC1=O)C(C)C)C(C)C	proteasome β1 subunit, human and mouse	probe labelling, fluorescent gel	purified constitutive and immunoproteasome	1 h		minimum labelling concentration	0.5 µM
CC(C)C[C@H](NC(=O)[C@H](CCC(N)=O)NC(=O)[C@H](CCCNC(=N)N)NC(=O)[C@H](CCCNC(=N)N)NC(=O)[C@@H](NC(=O)[C@H](CCCNC(=N)N)NC(=O)[C@@H](NC(=O)[C@H](CO)NC(=O)[C@@H](N)CS)[C@@H](C)O)C(C)C)C(N)=O	human Nox1/p47phox/p67phox	cytochrome c reduction		1 µM, added: LiDS		superoxide production	no effect
COc1ccc(/C=C/C(=O)c2ccccc2)cc1	HDAC class I, II and IV (human)	enzyme activity, inhibitor, fluorometric	K562 cell extract	1 h, 37 °C		IC50	> 1000 µM
CCCCC/C=C/C(=O)CCc1ccc(O)c(OC)c1	mAb 5-3H1	antibody binding, indirect competitive ELISA		added: coating antigen 4-OVA		IC50	0.128 µg/mL
COc1cc(C(=O)c2[nH]c(N)nc2-c2cccs2)cc(OC)c1OC	tubulin goat	taxol-induced tubulin polymerization		90 µM, added: taxol 10 µM		inhibition	55 ± 8%

For quick reference, copied from above:
SMILES	target	assay	system	setting	how to read	endpoint	value
CCCCC/C=C/C(=O)CCc1ccc(O)c(OC)c1	mAb 5-3H1	antibody binding, indirect competitive ELISA		added: coating antigen 4-OVA		IC50	0.128 µg/mL
